# Assay results pooled from the literature.
# A part holds a random share of what one study measured.

# Set 1
# Target: TAR DNA-binding protein 43, full length, His tag (TARDBP, Homo sapiens, UniProt Q13148, residues 1-414)
# Method: RNA Bind-n-Seq
# Molecule type: RNA
# Matrix: in vitro
# Concentration: 20 nM
# Notes: 6-mer, flanks averaged, single round
# With: 150 mM LiCl
# Relative to: input library
# Reading: higher = stronger binding
Strand,6-mer enrichment (R)
ACGCCA,0.875
ACUACA,0.842
CACGCC,0.92
ACACCG,0.915
AAGGGC,0.957
CUGCCU,0.959
CGGUCA,0.85
UCCUCU,0.923
UCACAU,0.861
CCUAUU,1.02
ACCAGU,0.887
GUGUCA,1.04
GCGAUC,0.901
AAAUGU,1.04
UGGACA,0.967
GCCGUG,1.03
UCUGCU,0.912
UGAGCU,0.936
UGCGUG,1.54

# Set 2
# Target: Ras GTPase-activating protein-binding protein 1, RRM domain (G3BP1, Homo sapiens, UniProt Q13283)
# Chain of UniProt Q13283 (whole entry, looked up): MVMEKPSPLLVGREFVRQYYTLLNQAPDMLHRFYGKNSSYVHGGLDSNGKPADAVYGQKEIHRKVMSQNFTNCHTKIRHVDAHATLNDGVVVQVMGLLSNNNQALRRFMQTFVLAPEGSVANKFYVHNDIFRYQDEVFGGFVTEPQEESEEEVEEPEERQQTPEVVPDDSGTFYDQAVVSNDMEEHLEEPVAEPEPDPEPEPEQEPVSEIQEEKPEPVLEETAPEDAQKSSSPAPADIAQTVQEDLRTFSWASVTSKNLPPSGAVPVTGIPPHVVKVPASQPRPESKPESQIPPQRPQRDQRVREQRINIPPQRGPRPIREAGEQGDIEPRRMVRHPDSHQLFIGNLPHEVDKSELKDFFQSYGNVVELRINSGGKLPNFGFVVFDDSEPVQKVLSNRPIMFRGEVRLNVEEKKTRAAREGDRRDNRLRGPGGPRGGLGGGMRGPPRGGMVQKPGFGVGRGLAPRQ
# Method: RNA Bind-n-Seq
# Molecule type: RNA
# Matrix: in vitro
# Concentration: 1 µM
# Notes: whole 134-nt RNA, ends assumed
# With: 150 mM KCl
# Relative to: input library
# Reading: higher = stronger binding
# All sequences stand within: GGGAGUUCUACAGUCCGACGAUC … UGGAAUUCUCGGGUGUCAAGG
Strand,log2 enrichment
CAAGUCCUGUGCUACACAUCGUAUGUACCGAAUCGGAAAAGGAAAAGGGAAAAGGAAAGUAUUAUGUUACGCCGUUCGGAUCUGCACUUC,-0.188
UGGGAGGUGGAUUUUGUUUAUUUUUUUAGCUCAUUUCCAGGGGUGAGAAUUUUUUUUUAAUAUGUGUCAUGAAUAAAGUUGUUUUUGAAA,1.21
UGGCCCUGGUGGCAUGCGGGGAGGAAGAGGUGGCCGCAUGGAUCGUGGUGGUCCCGGUGGAAUGUUCAGAGGUGGCCGUGGUGGAGACAG,0.98
UAACUUUAGAGGAGGAUCUGAUGGAUAUGGCAGUGGACGUGGAUUUGGGCAUGGCUAUAAUGGGUAUGGAGGAGGACCUGGAGGUGGCAA,-0.54
GUCCUGUGCUACACAUCGUAUGUACCGAAUCGGUUUUUUGGUUUUUUGGUUUUUUGGGAAAGUAUUAUGUUACGCCGUUCGGAUCUGCAC,-0.226
AAGUCCUGUGCUACACAUCGUAUGUACCGAAUCGGGGAGGGGUUUGGGGAAAGGGGAAAGUAUUAUGUUACGCCGUUCGGAUCUGCACUU,1.45
CUGUGCUACACAUCGUAUGUACCGAAUCGGGGUUUUUUUGGGGAAAGGGGUUUUUUUGGGGAAAGUAUUAUGUUACGCCGUUCGGAUCUG,0.353
CACAGACAACACGCACCCACACAGACACAGAGGGAAGGGGUUGGGAUGGGGACAGGGUGCAGAGCAGGGCGGGGUAGGACCCCAGCCCCU,-0.0258
CAAGUCCUGUGCUACACAUCGUAUGUACCGAAUCGGAAAGGGGAAAGGAAAGGGGAAAGUAUUAUGUUACGCCGUUCGGAUCUGCACUUC,-0.09
CAAGUCCUGUGCUACACAUCGUAUGUACCGAAUCGGGGCCCGGGCCCGGGCCCGGGAAAGUAUUAUGUUACGCCGUUCGGAUCUGCACUU,-0.981
UCAAGUCCUGUGCUACACAUCGUAUGUACCGAAUCGGGUUUUUGGGUGGGUGGGAAAGUAUUAUGUUACGCCGUUCGGAUCUGCACUUCC,0.298
AGUCCUGUGCUACACAUCGUAUGUACCGAAUCGGGGAAAGGGGUGGGGUUUUUGGGGAAAGUAUUAUGUUACGCCGUUCGGAUCUGCACU,0.746
CCUGUGCUACACAUCGUAUGUACCGAAUCGGGGCCCCCCGGGCCCCCCGGCCCCCCGGGGAAAGUAUUAUGUUACGCCGUUCGGAUCUGC,-0.686
GCUUAUGUAGACAUGAGGAAGAUUGGCAGUAGCCGGGGAAUGGUUUCUGCAUACCCUCGACAGCUAGAGUCAUUAAUCCGCUUAGCAGAA,0.108

# Set 3
# Target: Interferon regulatory factor 7, full length, phosphomimetic (IRF7, Homo sapiens, UniProt Q92985, residues 1-503, S101K/S471D/S472D/S475D/S476D/S477D/S483D/S484D/S487D)
# Chain of UniProt Q92985 (whole entry, unmodified, looked up): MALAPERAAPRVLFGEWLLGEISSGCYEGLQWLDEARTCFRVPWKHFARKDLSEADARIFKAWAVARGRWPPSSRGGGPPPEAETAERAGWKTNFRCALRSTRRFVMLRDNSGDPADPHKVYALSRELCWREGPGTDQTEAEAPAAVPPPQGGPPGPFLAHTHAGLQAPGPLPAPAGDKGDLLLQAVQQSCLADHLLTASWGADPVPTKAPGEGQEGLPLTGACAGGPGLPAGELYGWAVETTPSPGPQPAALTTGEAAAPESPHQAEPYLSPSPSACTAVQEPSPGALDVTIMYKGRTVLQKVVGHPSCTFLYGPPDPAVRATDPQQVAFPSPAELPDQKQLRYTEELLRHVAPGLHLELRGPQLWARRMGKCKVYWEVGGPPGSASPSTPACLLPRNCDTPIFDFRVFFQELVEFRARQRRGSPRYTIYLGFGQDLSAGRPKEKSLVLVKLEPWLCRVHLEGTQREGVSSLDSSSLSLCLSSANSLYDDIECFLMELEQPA
# Method: protein-binding microarray
# Molecule type: double-stranded DNA, one strand shown
# Matrix: in vitro
# Concentration: 250 nM
# Notes: 60-bp whole probe
# With: salmon DNA 0.4 mg/ml
# Relative to: random background probes
# Reading: higher = stronger binding
# All sequences stand within: GCCTAGCAC … GTCTTGATTCGCTTGACGCTGCTG
Strand,log fluorescence [z-score]
TTAGGACTGGGACTAGGTTAGTGCTAG,-0.186
GACGGTATCGGGGTTCGGGACGTGCTA,-0.188
TTAGGTCTCGGAATGGGTTAGTGCTAG,1.87
TTAGGTTTCGCACTGGGTTAGTGCTAG,3.28
TCATCTTTCTCTGCTACCACTGTGCTA,0.754
TCACCTTGGAAGTATGACACTGTGCTA,-0.361
GACGATCTTAGTCTCGAGACGTGCTAG,0.595
GACGGTATCGGTAACGGGACGTGCTAG,-0.0447
TTAGAACTGAGACTGTATTAGTGCTAG,-0.149
GACGATTCCAGTTACGAGACGTGCTAG,0.858
TTAGGACTGGTCTTTCGGTTAGTGCTA,-0.0479
TTAGATATCGGGTTTCGAATAGTGCTA,3.17
TCACTTTTATTTTCAGTACTGTGCTAG,1.3
TTCTAAACCATTTTGGTTTTGTGCTAG,0.175
AACGGTATCCTACTGCTGACGTGCTAG,-0.153
TTAGGTCTCGGTCTCGATTAGTGCTAG,2.36
TCAAATATATATATTATACTGTGCTAG,0.386

# Set 4
# Target: RNA binding protein fox-1 homolog 2, RRM domain, GST-SBP tag (RBFOX2, Homo sapiens, UniProt O43251-10, residues 100-194)
# Method: RNA Bind-n-Seq
# Molecule type: RNA
# Matrix: in vitro
# Concentration: 365 nM
# Notes: natural RNA segment, single round, ends assumed
# Relative to: no-protein control
# Reading: higher = stronger binding
# All sequences stand within: GGGAGUUCUACAGUCCGACGAUC … UGGAAUUCUCGGGUGCCAA
# Target sequence (chain): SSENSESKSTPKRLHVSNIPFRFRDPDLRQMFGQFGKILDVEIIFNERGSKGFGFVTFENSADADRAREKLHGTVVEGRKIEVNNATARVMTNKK
Strand,RBNS enrichment (R)
UAUAGUUACAGAACCAUUGUGAAUUUCAAAGCUAGCAACCUACACGGUGCACCAGGUUGACUUGAAUAAAUUUGGCAACCAGGUUUGCAAGCGUGCAGAAACUAACUCCU,0.328
CAUACUUUAUAAGUAAAGCGCUAUGAAUGCUGUGGAGACCAAGGUGAAAUAAAUAGUGCAAAUGUGUAGGAAUAAUUAGAUUGCAGUUUCCAUACAUCCGCAAGCCCAGU,1.96
GUAGAUGUGUGAGGGGCUGCAUUAUGGGAACUGGCUCACAGAUUCUGGAGGCCAACAAGUCCCACGAUCGGCUGUCUGCGAUUGGGAGACCAGGAGAAGCCACACCGUAA,0.509
CAUCAUGAGCUGAGGUGGGACCACAGUCCCCAGGCUGCAUCGGCCUGCCUGUGUUUCCCUCUUAGGUGCAUUUAUCUUUUUGAUUUUUCCGAGUGGCAUUUAAGUGCACA,0.894
UGUUUUCAAAGGAAUGAGGUGUUUAGGUGGCUGGAAAAGCAUUUGUAGGAAGUUAGAUUUGAAUAUAGACAAGGUGGGUUAUUCACGUUGAGAAUGUUAUUUGAAGAAUG,8.85
UUCUAACUUUGGCAACAUCAGAACUUGCCACAUGUAGCUACUGCAGCAAGGCUUCUGUGUACUUGCCUGAAAACAAAGGAAGGUGCUGGUCAUUCCAUUUCUUUUGUUUG,0.228
UGGAUCCCCCUACUGCUCCCAGGAAUUGGGCUCCUGACAGCAGUCUGCUACCACAACCCCAGGCGGGUGUCAACACCAGCAAAUGCUGUGUUUGCAGCAUGCCCAAGAUG,0.526
CUGGUCUGCCAUUCGCCAGUGCAGGGAUCUGGCACGGACCAGAUGUGGCGAAUGGCAGCACAGCGCGGUGGCUGGGUCUGCACACUGGCCUCUGCAGCCAGAUUUCUAUA,0.48
AUUUUAACUAGUGAACAUAAGGACAAUUUGCCUCAAUAGAAGACCAACAACCCCAUCAUGGAAUAUCACAGAAAUUCUUUUGGAUAACAAUUUGUUCCAACUUUAAUCCA,0.405
CCAUGAUUGCGCCACUGCACUCAGCCCGGGUGACAAAGCAAGACCCUGUCUCAGAAAAAAAGAAAAUUCAAGGCCAGUUAAGACAAAAUGCUAUGACUUUGAAAUUCACA,0.462
CCAAGCACUUGUGCAACUUGGAAAAACAGACUUGGGUUGUGGGAACAGUUGACAGCGUUCUGAAAAGAUGCCAUUUGUUUCCUUCUGAUCUCUCACUGAAUAAUGUUUAC,0.305
UCCUGGGAAAGGGGCCGCUGCUGUCUGGUGCCCUGUGAGCUGUGAUUGAUUGCCUUUGGUCAGUAAUGCGUUCAGGAGUCCACACCAGGCACAGAUGGGGCCUUGAAACG,0.968

# Set 5
# Target: Histone acetyltransferase KAT6A, winged helix 2, GST fusion (KAT6A, Homo sapiens, UniProt Q92794, residues 85-181)
# Method: protein binding microarray
# Molecule type: double-stranded DNA, one strand shown
# Matrix: in vitro
# Concentration: not given
# Notes: 8-mer, flanks averaged, mean of 2 arrays, mostly near background
# Relative to: not given
# Reading: higher = stronger binding
# Construct (chain): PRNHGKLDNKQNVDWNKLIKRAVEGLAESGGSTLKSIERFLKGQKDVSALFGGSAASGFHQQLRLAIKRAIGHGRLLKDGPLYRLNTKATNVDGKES
Strand,E-score
CTCGCTAC,-0.0247
AGAAGATA,-0.11
GAAATACA,-0.0643
CCCAATCG,0.0503
ATGAAAGC,0.06
AGATCTAA,-0.0243
AAGTCTCG,-0.186
GCGTCATA,0.0966
ATAGCCCC,-0.196
AATGAGTC,-0.277
GTGGCGAA,0.23
CAACGTAG,0.000235
CTAGTGGC,0.052
CGTAAGAG,-0.077
ACGGCCAG,-0.0459
CAACAACA,0.234
AATGCACG,-0.002
AGTAGGGC,0.0279
CGTATATC,-0.0443
CACTTAAA,-0.0453
CAGGGCTC,0.0473
CTTAAGGA,-0.00301
GAATGCGC,0.104
CGGCCCCG,0.145
ATGGCAAC,0.141

# Excerpt of the above (set 1):
Strand,6-mer enrichment (R)
CGGUCA,0.85
ACUACA,0.842
CUGCCU,0.959
UGAGCU,0.936
UGCGUG,1.54
CACGCC,0.92
AAGGGC,0.957
